Measured values from different studies.
A part holds a random share of what one study measured.

Set 1 — method: RNA Bind-n-Seq; molecule type: RNA; medium: in vitro; tested at: 365 nM; baseline: no-protein control; reading: higher = stronger binding
Target: RNA binding protein fox-1 homolog 2, RRM domain, GST-SBP tag (RBFOX2, Homo sapiens, UniProt O43251-10, residues 100-194)
Setting: natural RNA segment, single round, ends assumed
Constant ends, left off below: GGGAGUUCUACAGUCCGACGAUC … UGGAAUUCUCGGGUGCCAA
Residues (chain): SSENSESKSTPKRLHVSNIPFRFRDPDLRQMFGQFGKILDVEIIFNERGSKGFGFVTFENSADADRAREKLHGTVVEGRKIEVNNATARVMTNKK
Oligonucleotide | RBNS enrichment (R)
GCUUGUACGUAGCUUGCCACUCAGUGAAAAUAAUAACAUUAUUAUGAGAAAGUGGACUUAACCGAAAUGGAACCAACUGACAUUCUAUCGUGUUGUACAUAGAAUGAUGA | 2.83
CCUGCUGUGUGUCGGCCUUAUUAUUGUGACCAUCCUGCUGCUCCAGACUGCCUUCCCGGGAUUUCUCUAACCUCUAGAGCGAUGGGAAUCAGCCUUGGACAGUGCCGCCU | 0.228
GCCGUGACUGGUUUUCUGUCCCCAAGAACGUGACGUUCGUGAUGUCCUGCCCGCCGGGAGUCUUUCCCCACACCCCAGCCAUCGCCGCCCGCUCCCAGGAGGCCAGGGCA | 0.436
UCCACCCCUUGUCUUUGUGUGUCAGGUGAUCAUUGAAAUCGUAUCUUGAGCUUGAAUUCACUUCUCUGUCUGUUUCCGGAGCUGGUGAAAUAAAUGUGAUUUUUGUCCGA | 9.14
GUUAGAAUACAGUUCUCUGGCCACAGCUGAUGAGGGCUUUCUGUACUGCACACAGAUUGUGUACUGCACCCCAGUCCAGGUGACUGGUACCCACUCGAGUUGUGCCGUGC | 0.809
UUGUAUUCUCGACACAAAAUAAGUGAAACUUCUUUUUACAAAGAUAGAGAAACAGCACAAUCAAUUCCAAAUGGUAUGAGAUGGAUUGGAAGUGGCCAGCAGCAAGUUCU | 1.26
GCGCCAGCGGUGGAGGCUGAGUCGCAGGACACAUGCCGGCCAGUUAAUUCAUUCUCAGCCAAUGAAGGUUUGUCUAAGCUGCCUGGGUAUCCACGGGACAAAAACAGCAA | 0.288
UGUGCACCAAUUGUCAAAACCACUGAGUGCUGUGCUGCCUAUGUGAGAAGAAAGUUACUGACUUGUGACCUAUGCUUGGCCCUGUGCCUAGUCACCUGUCACCAGGGAUU | 0.511
UCAAAGAGAGGUAUAGGGGCUUUUUACUGCCUUCGAAAUCACUUUUAAUAAAAGUUGUAUGAUAAAUCAUUAAAAAUGCGAGUGUAAAUAUUUUUUUUUACCUCUAUCAG | 0.539
AAGCAAACAAAUUUAAGUUUUCUUGUAUUGAAAAUAACCUAUGAUUGUAUGUUUUGCAUUCCUAGAAGUAGGUUAACUGUGUUUUUAAAUUGUUAUAACUUCACACCUUU | 0.607
UACUUGUUUAACACAAGUUUAUACCUGGUGUCAAUAAAACAAAUAUGUAUUUCUUGUCUACUAAGGAUUGCCAAGCUUUGUUUUGAAUUUCUGUAUUGGUCUCUAGGUGU | 0.422
UGCUGUGAGUUGUUCCAGACCUUUCUGUGGCUUUUUGGUAAGGCUGCUUAGAAGCAUGAGAAGCAUGAGAAUGGUAAUGUGUGCUAAACCUAUGUUUAACCAAUCUUUGC | 4.73

Set 2 — method: RNA Bind-n-Seq; molecule type: RNA; medium: in vitro; tested at: 200 nM; setting: whole 134-nt RNA, ends assumed; added: 150 mM LiCl; baseline: input library; reading: higher = stronger binding; library: 7-deaza-guanosine replaces G
Target: Ras GTPase-activating protein-binding protein 1, full length (G3BP1, Homo sapiens, UniProt Q13283)
UniProt Q13283, sequence (whole entry, looked up): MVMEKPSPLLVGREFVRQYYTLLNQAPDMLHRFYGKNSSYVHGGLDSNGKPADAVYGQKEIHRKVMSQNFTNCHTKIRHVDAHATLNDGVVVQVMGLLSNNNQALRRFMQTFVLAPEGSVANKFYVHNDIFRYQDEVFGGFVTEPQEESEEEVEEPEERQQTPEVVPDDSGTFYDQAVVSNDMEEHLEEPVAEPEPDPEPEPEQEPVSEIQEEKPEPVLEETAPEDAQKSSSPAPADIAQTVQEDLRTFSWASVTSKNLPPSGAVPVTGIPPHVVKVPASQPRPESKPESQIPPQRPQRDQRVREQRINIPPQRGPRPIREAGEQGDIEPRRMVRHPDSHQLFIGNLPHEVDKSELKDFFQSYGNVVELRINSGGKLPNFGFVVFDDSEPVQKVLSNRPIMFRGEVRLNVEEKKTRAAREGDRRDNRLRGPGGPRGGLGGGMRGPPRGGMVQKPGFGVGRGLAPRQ
Constant ends, left off below: GGGAGUUCUACAGUCCGACGAUC … UGGAAUUCUCGGGUGUCAAGG
Oligonucleotide | log2 enrichment
CAAGUCCUGUGCUACACAUCGUAUGUACCGAAUCGGGAAAGGGGAAAGGGAAAGGAAAGUAUUAUGUUACGCCGUUCGGAUCUGCACUUC | -0.176
GUGAAUCAAAAACUCUGGUUUUAAGCAACCUCUCCUACAGUGCAACAGAAGAAACUCUUCAGGAAGUAUUUGAGAAAGCAACUUUUAUCA | 1.26
GUCCUGUGCUACACAUCGUAUGUACCGAAUCGGUUUUUGGAAAAAAAGGUUUUUUUGGAAAGUAUUAUGUUACGCCGUUCGGAUCUGCAC | -2.52
GCAGGAAGUAAAAACAAAUGGAAAUGCUUCGAAAAGUGGCAGGGGUGGGGGUUGCUAAGGAAAGGGUGGGAUGGGAGUGGGUAAAGAGUU | 0.0955
ACCAUGCAGGUGGGCAUCUUUGGGAAGUGGGGCAAGGGGGGGAUAGGGAGGGGGGUAACACUUUGGGAACAGGUGGGCCCAGGUCGUUUC | -0.277
AGUCCUGUGCUACACAUCGUAUGUACCGAAUCGGCCCCGGGCCCCGGGGCCCCGGGGAAAGUAUUAUGUUACGCCGUUCGGAUCUGCACU | -1.92
AAGUCCUGUGCUACACAUCGUAUGUACCGAAUCGGAAAAGGAAAAGGGAAAAGGGGAAAGUAUUAUGUUACGCCGUUCGGAUCUGCACUU | -0.247
ACCAUGCAGGUGGGCAUCUUUUGGAAGUGGGGCAAGGGGGGGAUAGGGAGGGGGGUAACACUUUGGGAACAGGUGGUCCCAGGUCGUUUC | 0.256
UCAAGUCCUGUGCUACACAUCGUAUGUACCGAAUCGGGAGGGAAAGGGAAAGGGAAAGUAUUAUGUUACGCCGUUCGGAUCUGCACUUCC | -0.0762
CUCAAGUCCUGUGCUACACAUCGUAUGUACCGAAUCGGCCCGGCCCGGCCCGGAAAGUAUUAUGUUACGCCGUUCGGAUCUGCACUUCCA | 0.0803
UCAUUGCAUGAAAAGUGGAAAAGUUUAGAUCUAUGGAAACAGAACUGUUGCCUAUAUGGAAAAUCAGUGCCUUGUGGCAAUACAGGUAAG | -2.26

Set 3 — method: protein-binding microarray; molecule type: double-stranded DNA, one strand shown; medium: in vitro; tested at: not given; reading: higher = stronger binding
Target: Transcriptional repressor CTCF (CTCF, Homo sapiens, UniProt P49711, residues 1-727, full length assumed)
UniProt P49711, sequence (whole entry, looked up): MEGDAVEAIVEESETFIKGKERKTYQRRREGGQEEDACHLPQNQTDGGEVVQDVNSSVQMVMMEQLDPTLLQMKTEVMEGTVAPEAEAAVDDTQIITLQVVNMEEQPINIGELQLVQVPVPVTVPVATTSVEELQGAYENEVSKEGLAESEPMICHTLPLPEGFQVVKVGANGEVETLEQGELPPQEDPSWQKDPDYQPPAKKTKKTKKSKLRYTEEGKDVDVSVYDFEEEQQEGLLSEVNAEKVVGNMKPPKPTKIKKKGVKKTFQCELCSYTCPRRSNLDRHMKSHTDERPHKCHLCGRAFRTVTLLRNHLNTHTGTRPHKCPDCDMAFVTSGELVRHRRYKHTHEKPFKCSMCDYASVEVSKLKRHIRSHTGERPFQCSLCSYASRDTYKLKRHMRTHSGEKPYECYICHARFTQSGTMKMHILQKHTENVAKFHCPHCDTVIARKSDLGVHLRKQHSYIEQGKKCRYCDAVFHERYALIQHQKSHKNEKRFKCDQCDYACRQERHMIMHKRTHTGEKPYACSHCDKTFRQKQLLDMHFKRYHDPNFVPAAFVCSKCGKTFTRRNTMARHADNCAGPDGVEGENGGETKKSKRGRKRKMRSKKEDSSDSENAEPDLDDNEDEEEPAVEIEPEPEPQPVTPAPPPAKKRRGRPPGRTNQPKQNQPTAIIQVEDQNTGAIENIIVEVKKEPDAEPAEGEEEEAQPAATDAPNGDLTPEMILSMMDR
Setting: k-mer, scored over probes, only values ≥0.25
Oligonucleotide | E-score
TAATCGCA | 0.292
AATATCAT | 0.309
ATATGCGC | 0.446
TAGTATAA | 0.302
GGATAGTA | 0.261
ATTCATTC | 0.315
ATGTTAAA | 0.257
AAAACACC | 0.287
AGTGTAAT | 0.296
TATTATAA | 0.289
ATATTAGA | 0.307
AAAATGAT | 0.404
ACATGCGC | 0.367
ATAGTAAT | 0.326
ATTGCGCA | 0.336
GTAAATAC | 0.275
ATTATACC | 0.316
ATAACAGC | 0.263
TAAACATA | 0.318
AATAATTG | 0.279
AAGCGCTT | 0.266
GTTTCCTA | 0.27
GTATTGTA | 0.28
GGAAAAAC | 0.257
ACATGTGG | 0.252

Set 4 — method: aptamer microarray, sandwich; molecule type: DNA with 2'F-ANA; medium: in vitro; tested at: 200 nM; added: Cy3 exosite-II aptamer, 400 nM; reading: higher = stronger binding; oligonucleotide: GGTTGGTGTGGTTGG
Target: Prothrombin, mature alpha-thrombin (F2, Homo sapiens, UniProt P00734)
Setting: whole 15-mer aptamer, many near background
Modification | mean fluorescence intensity [a.u.]
2'F-ANA at 3 4 5 10 11 14 15 | 93.1
2'F-ANA at 1 2 8 9 10 14 15 | 49.5
2'F-ANA at 2 3 8 10 12 15 | 438
2'F-ANA at 1 2 3 4 9 10 11 12 13 | 65.7
2'F-ANA at 1 2 3 4 7 8 10 12 14 15 | 51.5
2'F-ANA at 3 4 5 7 8 13 | 75.2
2'F-ANA at 1 2 3 5 6 8 10 12 14 | 50.6
2'F-ANA at 1 3 4 6 7 8 11 13 14 | 70.3
2'F-ANA at 1 2 3 4 5 6 7 8 10 | 50.3
2'F-ANA at 2 3 5 6 8 9 11 13 14 | 50
2'F-ANA at 2 3 5 7 8 12 14 15 | 69.2
2'F-ANA at 2 3 4 7 10 11 12 13 | 277
2'F-ANA at 1 2 6 7 8 9 11 | 141
2'F-ANA at 1 2 4 7 8 12 | 385
2'F-ANA at 1 4 5 8 10 11 | 51.6
2'F-ANA at 1 2 3 6 9 10 12 13 14 | 58.5
2'F-ANA at 1 2 5 6 8 11 12 14 | 48.9
2'F-ANA at 3 6 7 9 10 11 15 | 396
2'F-ANA at 11 | 599
2'F-ANA at 1 5 6 7 8 11 12 15 | 89.9
2'F-ANA at 1 5 6 8 9 10 12 | 52.1
2'F-ANA at 2 11 12 15 | 674
2'F-ANA at 3 4 7 8 10 12 13 15 | 298
2'F-ANA at 1 2 3 4 5 6 7 8 10 11 13 14 15 | 45.8
2'F-ANA at 1 3 4 5 6 9 10 11 12 14 15 | 61.9

Some of these lines once more (set 3):
Oligonucleotide | E-score
ATATGCGC | 0.446
TAGTATAA | 0.302
GGATAGTA | 0.261
ATTCATTC | 0.315
ATGTTAAA | 0.257
AAAACACC | 0.287
AGTGTAAT | 0.296
TATTATAA | 0.289
ATATTAGA | 0.307
AAAATGAT | 0.404
ACATGCGC | 0.367
ATAGTAAT | 0.326
